Assay results of several laboratories.
Lines come from different studies, so protocols differ. Several values in a cell are separate wells, animals, samples, runs or records. ± marks the error that the study gave.
Chymotrypsinogen A: Chymotrypsinogen A (Bos taurus, UniProt P00766)
UniProt P47746, sequence (whole entry, looked up): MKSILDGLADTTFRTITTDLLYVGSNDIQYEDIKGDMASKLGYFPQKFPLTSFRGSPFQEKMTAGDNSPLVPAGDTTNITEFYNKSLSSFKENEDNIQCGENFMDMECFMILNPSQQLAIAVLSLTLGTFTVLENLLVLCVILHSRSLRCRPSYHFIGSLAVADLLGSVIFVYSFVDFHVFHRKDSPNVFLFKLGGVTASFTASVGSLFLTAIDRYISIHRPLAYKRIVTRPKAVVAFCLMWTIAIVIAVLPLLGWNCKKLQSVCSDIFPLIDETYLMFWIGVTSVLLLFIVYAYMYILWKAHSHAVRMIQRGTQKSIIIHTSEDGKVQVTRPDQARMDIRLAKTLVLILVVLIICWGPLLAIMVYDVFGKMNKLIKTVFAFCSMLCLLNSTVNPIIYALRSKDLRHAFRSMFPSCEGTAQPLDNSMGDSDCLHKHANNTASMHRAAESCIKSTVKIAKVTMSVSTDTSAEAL
UniProt Q60492, sequence (whole entry, looked up): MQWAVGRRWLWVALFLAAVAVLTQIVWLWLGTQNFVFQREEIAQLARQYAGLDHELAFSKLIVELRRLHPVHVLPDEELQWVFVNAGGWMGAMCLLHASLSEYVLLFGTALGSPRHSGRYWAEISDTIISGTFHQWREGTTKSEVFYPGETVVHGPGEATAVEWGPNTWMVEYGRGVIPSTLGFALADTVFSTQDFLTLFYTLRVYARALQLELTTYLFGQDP
UniProt P05067, sequence (whole entry, looked up): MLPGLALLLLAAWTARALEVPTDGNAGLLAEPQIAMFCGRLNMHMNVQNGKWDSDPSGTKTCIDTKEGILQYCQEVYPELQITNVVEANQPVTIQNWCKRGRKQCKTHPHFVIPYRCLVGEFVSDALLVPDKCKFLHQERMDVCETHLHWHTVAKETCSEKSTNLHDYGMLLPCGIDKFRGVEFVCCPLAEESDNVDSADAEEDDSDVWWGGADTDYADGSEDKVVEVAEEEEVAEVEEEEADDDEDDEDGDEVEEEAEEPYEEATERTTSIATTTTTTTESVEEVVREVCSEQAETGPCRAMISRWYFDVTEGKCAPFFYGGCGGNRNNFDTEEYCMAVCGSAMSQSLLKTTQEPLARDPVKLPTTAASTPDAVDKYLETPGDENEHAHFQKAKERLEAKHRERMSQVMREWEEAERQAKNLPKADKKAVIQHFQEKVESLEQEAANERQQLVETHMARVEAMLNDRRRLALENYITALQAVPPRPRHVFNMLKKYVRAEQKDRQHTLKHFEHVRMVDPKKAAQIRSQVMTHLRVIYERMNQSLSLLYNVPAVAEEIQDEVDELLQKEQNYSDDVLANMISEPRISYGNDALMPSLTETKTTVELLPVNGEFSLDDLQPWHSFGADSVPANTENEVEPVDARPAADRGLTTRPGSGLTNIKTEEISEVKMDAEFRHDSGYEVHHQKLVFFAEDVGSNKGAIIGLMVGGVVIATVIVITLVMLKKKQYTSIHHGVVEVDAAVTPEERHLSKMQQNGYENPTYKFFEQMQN
UniProt P46098, sequence (whole entry, looked up): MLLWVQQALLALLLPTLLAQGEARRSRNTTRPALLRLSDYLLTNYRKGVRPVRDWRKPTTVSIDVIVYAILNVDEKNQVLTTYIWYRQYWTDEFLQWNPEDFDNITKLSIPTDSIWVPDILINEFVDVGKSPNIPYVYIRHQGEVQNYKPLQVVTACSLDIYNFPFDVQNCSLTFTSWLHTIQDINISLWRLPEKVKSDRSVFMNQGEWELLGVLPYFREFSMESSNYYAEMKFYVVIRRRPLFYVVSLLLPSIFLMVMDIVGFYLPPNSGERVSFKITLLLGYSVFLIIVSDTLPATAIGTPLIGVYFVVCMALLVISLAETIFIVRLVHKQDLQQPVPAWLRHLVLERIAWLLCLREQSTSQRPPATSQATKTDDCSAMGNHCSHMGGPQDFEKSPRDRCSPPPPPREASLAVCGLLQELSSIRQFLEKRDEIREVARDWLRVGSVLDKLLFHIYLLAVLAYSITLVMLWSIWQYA

Structure (SMILES)	target	assay	test system	setting	Ki
CC(C)(C)N1Cc2cccc(n2)CN(C(C)(C)C)Cc2cc(-c3nc4ccccc4s3)cc(n2)C1.[Cu+]	Amyloid-beta precursor protein, Aβ42 fibrils (APP, Homo sapiens, UniProt P05067)	amyloid-beta 42 binding, thioflavin T competition	–	pH 7.4	0.73 ± 0.06 µM
CCCC(=O)O[C@@]1(C)CN(Cc2ccccc2)[C@H]2C[C@@H]1CC(=O)[C@@H]2C	Sigma non-opioid intracellular receptor 1 (SIGMAR1, Cavia porcellus, UniProt Q60492)	–	–	–	4.6 µM
CCOC(=O)[C@@](CC)(CCCSCCOCCOCCN)NC(=O)c1ccc(C2CC2)c(Cc2ccc(F)cc2)n1	Cannabinoid receptor 1 (Cnr1, Mus musculus, UniProt P47746)	ligand displacement, radioligand	–	cell membranes	0.163 µM
CCC1(CC)CC(=O)N(C2c3cc(C(=O)NC4c5ccccc5CC4O)ccc3OC2(C)COC)C(=N)N1 (stereo not drawn)	Plasmepsin X (Plasmodium vivax, UniProt A5KAC3)	enzyme activity, inhibitor, peptide cleavage	–	–	2.9e-05 µM and 3e-05 µM
Cc1ccc(/N=N/c2ccccc2)cc1[B-](F)(F)F	Chymotrypsinogen A	enzyme activity, competitive inhibitor	buffer with 2 vol% DMSO	pH 7.81, 25 °C, thermally adapted trans state, with: Suc-AAPF-AMC	12.6 ± 0.557 µM
CC(C)Oc1ccc(B(O)O)c(F)n1	Chymotrypsinogen A	enzyme activity, inhibitor, absorbance	–	–	1010 µM
F[B-](F)(F)c1ccccc1/N=N/c1ccccc1	Chymotrypsinogen A	enzyme activity, inhibitor	–	pH 7.81, 25 °C, cis-enriched photostationary state, with: Suc-AAPF-AMC	63.7 µM
OB(O)c1ccc(OCc2ccccc2)nc1F	Chymotrypsinogen A	enzyme activity, inhibitor, absorbance	–	–	167 µM
COC(=O)c1ccc(/N=N/c2cccc([B-](F)(F)F)c2)cc1	Chymotrypsinogen A	enzyme activity, competitive inhibitor	buffer with 2 vol% DMSO	pH 7.81, 25 °C, thermally adapted trans state, with: Suc-AAPF-AMC	226 µM
Cn1ccc2c(N3CCN(CCCCOc4ccc5c(c4)NC(=O)CC5)CC3)cccc21	5-hydroxytryptamine receptor 3A (HTR3A, Homo sapiens, UniProt P46098)	cell-free assay, radioligand	–	–	> 10 µM
Cc1ccc([B-](F)(F)F)cc1/N=N/c1ccccc1	Chymotrypsinogen A	enzyme activity, inhibitor	–	pH 7.81, 25 °C, cis-enriched photostationary state, with: Suc-AAPF-AMC	23.5 µM
CC(=O)OCC1=C2C(C)=CC(C)=[N+]2[B-](C)(C)n2c(C)cc(C)c21	Cathepsin B (CTSB, Homo sapiens, UniProt P07858)	irreversible inactivation, inhibitor	–	concentration not given, pH 5.5, 25 °C, in dark, with: Z-Arg-Arg-AMC	1400 ± 500000 µM

Repeated from above:
Structure (SMILES)	target	assay	test system	setting	Ki
CCCC(=O)O[C@@]1(C)CN(Cc2ccccc2)[C@H]2C[C@@H]1CC(=O)[C@@H]2C	Sigma non-opioid intracellular receptor 1 (SIGMAR1, Cavia porcellus, UniProt Q60492)	–	–	–	4.6 µM
